Earlier results that unrelated publications cite.
Protocols differ between the studies behind these lines. ± marks the error that the study gave. Values after ≈ are worked out from the molar mass of the structure shown.
UniProt P07333, sequence (whole entry, looked up): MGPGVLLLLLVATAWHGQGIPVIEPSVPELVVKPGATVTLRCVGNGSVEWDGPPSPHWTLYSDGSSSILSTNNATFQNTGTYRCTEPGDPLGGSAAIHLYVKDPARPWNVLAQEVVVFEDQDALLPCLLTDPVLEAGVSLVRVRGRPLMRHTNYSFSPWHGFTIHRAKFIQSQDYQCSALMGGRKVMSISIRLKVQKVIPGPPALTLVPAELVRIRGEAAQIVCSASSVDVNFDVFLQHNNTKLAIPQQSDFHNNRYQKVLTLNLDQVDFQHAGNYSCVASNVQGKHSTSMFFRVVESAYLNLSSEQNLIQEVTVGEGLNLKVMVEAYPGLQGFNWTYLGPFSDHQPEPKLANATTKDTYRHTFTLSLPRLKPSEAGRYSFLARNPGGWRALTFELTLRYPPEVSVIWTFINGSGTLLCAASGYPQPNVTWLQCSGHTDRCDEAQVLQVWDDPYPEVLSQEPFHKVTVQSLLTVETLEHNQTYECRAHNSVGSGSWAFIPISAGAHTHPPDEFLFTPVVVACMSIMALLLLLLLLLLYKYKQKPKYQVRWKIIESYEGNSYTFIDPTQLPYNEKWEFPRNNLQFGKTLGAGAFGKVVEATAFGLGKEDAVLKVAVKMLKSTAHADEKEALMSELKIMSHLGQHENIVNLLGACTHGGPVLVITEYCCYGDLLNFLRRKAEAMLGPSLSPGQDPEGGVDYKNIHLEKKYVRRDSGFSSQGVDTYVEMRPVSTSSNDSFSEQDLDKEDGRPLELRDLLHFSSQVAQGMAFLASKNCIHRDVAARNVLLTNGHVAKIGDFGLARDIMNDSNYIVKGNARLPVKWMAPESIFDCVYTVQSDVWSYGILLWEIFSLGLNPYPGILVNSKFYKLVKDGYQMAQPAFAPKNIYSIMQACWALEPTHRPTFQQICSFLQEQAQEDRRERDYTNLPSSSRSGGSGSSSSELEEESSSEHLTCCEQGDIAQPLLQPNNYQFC

Structure (SMILES)	target or system	test	system	conditions	scale	measurement	result
Cc1cnc(N2CC3(CCOCC3)C2)c(C(=O)Nc2ccc(C(=O)N3CCc4cc(C(=O)Nc5c(C)cccc5F)sc4-c4ccccc43)cc2)c1	respiratory syncytial virus	viral load	A2, air-liquid interface culture	AUC day 3-10 post infection		IC50	56.8 ng/mL
COc1ccccc1Oc1cccc(CN2CCC(NC(=O)C3CC(=O)Nc4ccccc43)CC2)c1 (centres unmarked)	human CCR8 S110A mutant (TM3)	IP accumulation, agonist				EC50	3.6 nM
CC1(C)S[C@@H]2[C@H](NC(=O)[C@H](N)c3ccccc3)C(=O)N2[C@H]1C(=O)O	Enterobacter cloacae		clinical isolate RKI-No_243/15			MIC	> 16 mg/L
COc1ccccc1Oc1cccc(CN2CCC(O)(c3ccccc3C(=O)O)CC2)c1	human CCR8 S110A mutant (TM3)	IP accumulation, agonist				EC50	6 nM
C=CC(=O)N1CCC(C(=O)NCC(=O)N2CCN(c3nc(-c4cnc(N)nc4C(F)F)nc(N4CCOCC4)n3)CC2)CC1	Macrophage colony-stimulating factor 1 receptor, autoinhibited (CSF1R, Homo sapiens, UniProt P07333)	kinase activity		1 µM		remaining activity	20%
O=C(NCc1ccc(OC(F)(F)F)cc1)Nc1cccc2cnccc12	TRPV1	calcium flux, antagonist	HEK293	added: capsaicin		IC50	3 nM
C[C@H]1COCCN1c1nc(-c2cnc(N)cc2C(F)F)nc(N2CCOCC2)n1	DU-145					GI50	237 nM
CNC(C)C1CCC(N)C(OC2C(N)CC(N)C(OC3OCC(C)(O)C(NC)C3O)C2O)O1 (centres unmarked)	Escherichia coli		clinical isolate RKI-No_592/16			MIC	1 mg/L (≈ 2.09 µM)
COc1ccccc1Oc1cccc(CN2CCC3(CC2)C(=O)NCN3CCc2ccccc2)c1	human CCR8 H283A mutant (TM7)	IP accumulation, agonist				EC50	24 nM
Nc1cc(C(F)(F)F)c(-c2nc(N3CCOCC3)nc(N3CCOCC3)n2)cn1	A549					GI50	624 nM
O=C(NCC(Cc1cccc(C(F)(F)F)c1)c1ccc(F)cc1)Nc1cccc2cnccc12 (centres unmarked)	TRPV1	calcium flux, antagonist	HEK293	added: capsaicin		IC50	19 nM
Cc1c(C#N)cccc1[C@@H](C)Nc1nnc(C)c2cnc(N3CCOCC3)cc12	NCI-H1435	ERK phosphorylation, In-Cell Western, item: phospho-ERK				IC50	89.3 ± 6.5 nM
COc1ccccc1Oc1cccc(CN2CCC(NC(=O)C(CCN3CCCC3)c3ccccc3)CC2)c1 (centres unmarked)	CCR8 human G206A	inositol phosphate accumulation, agonist				EC50	no effect
CN(C)C(=O)c1cc2cnc(Nc3ccc(N4CCNCC4)cn3)nc2n1C1CCCC1		item: hyperglycemia	advanced solid tumour or lymphoma patients	dose not given, continuous dosing	reference: patients	adverse event incidence	26.3%
